Measured values from different studies.
Numbered parts are unrelated; each lists some results of a single study. Values joined by “and” are separate records of one study, mostly repeats; a detail may differ.
UniProt Q15349, sequence (whole entry, looked up): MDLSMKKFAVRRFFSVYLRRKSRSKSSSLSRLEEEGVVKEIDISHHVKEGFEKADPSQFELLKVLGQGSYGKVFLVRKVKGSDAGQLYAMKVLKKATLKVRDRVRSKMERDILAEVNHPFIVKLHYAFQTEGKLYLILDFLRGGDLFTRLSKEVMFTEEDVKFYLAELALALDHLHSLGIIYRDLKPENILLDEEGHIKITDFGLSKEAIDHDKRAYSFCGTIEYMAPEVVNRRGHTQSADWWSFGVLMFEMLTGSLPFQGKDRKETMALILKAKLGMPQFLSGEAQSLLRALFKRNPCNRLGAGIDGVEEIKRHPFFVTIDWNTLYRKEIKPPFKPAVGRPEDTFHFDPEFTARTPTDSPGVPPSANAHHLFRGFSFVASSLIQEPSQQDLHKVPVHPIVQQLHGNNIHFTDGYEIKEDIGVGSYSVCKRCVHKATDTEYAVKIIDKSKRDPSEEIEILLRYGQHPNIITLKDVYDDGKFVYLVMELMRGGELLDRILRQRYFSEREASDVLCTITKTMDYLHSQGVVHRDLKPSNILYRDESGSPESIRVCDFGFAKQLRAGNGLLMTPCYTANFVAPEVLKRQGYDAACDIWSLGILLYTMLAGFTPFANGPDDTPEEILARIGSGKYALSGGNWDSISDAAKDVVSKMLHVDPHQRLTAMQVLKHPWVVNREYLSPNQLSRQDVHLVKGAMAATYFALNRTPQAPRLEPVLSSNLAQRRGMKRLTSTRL
UniProt P36896, sequence (whole entry, looked up): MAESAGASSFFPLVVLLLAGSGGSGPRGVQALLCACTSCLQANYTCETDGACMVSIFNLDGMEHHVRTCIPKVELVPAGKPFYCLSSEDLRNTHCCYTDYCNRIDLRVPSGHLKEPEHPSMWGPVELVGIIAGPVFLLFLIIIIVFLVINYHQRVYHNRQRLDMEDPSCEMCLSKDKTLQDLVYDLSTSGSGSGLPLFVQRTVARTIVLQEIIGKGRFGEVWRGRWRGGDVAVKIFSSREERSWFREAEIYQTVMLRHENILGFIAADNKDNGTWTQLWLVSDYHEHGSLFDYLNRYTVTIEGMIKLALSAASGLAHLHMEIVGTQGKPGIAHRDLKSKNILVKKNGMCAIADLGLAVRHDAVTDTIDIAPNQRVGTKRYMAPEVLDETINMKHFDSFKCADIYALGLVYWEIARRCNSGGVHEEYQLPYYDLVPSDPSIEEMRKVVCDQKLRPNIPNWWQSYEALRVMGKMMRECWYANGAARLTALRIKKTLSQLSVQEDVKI
UniProt P42685, sequence (whole entry, looked up): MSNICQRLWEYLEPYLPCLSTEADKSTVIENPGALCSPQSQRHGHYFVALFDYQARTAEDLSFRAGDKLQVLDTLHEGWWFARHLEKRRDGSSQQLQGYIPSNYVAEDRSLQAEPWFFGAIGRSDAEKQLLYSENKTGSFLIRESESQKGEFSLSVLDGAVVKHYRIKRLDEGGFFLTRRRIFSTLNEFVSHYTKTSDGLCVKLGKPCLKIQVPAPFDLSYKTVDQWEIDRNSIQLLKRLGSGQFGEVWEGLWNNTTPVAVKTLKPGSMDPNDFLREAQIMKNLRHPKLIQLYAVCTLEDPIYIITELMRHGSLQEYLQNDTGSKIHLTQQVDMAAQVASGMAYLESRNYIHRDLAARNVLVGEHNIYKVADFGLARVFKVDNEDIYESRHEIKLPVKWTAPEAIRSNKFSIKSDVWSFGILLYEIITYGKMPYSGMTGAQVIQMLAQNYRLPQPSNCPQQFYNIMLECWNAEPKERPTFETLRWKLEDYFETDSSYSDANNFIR
UniProt Q13163, sequence (whole entry, looked up): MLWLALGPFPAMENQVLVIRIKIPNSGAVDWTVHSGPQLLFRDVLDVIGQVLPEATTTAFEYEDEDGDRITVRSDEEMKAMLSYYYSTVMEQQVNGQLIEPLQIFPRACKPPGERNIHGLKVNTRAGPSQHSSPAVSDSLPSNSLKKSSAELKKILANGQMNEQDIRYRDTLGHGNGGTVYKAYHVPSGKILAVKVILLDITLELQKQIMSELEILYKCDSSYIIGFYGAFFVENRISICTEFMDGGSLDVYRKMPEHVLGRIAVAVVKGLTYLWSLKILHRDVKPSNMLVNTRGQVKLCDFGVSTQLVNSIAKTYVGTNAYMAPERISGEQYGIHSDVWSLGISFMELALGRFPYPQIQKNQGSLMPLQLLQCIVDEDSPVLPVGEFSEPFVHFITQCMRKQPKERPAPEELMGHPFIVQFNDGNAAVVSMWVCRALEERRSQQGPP
UniProt P10398, sequence (whole entry, looked up): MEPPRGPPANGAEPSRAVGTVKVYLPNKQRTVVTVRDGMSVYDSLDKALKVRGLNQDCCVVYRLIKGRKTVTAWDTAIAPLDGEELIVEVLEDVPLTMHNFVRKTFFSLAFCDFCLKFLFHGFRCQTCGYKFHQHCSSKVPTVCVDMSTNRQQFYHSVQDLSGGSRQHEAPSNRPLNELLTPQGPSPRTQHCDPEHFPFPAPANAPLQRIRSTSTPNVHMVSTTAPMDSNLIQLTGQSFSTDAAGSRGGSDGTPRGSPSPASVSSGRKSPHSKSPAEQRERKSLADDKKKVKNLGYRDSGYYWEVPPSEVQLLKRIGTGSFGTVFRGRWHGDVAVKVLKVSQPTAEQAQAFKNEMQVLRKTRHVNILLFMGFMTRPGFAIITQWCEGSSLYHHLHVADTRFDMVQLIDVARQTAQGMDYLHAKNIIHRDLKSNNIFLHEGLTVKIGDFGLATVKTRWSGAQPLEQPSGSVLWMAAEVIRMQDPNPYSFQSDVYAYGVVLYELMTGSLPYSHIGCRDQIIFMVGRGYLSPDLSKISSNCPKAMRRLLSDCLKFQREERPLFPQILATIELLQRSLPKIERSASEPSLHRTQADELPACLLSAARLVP
UniProt P52333, sequence (whole entry, looked up): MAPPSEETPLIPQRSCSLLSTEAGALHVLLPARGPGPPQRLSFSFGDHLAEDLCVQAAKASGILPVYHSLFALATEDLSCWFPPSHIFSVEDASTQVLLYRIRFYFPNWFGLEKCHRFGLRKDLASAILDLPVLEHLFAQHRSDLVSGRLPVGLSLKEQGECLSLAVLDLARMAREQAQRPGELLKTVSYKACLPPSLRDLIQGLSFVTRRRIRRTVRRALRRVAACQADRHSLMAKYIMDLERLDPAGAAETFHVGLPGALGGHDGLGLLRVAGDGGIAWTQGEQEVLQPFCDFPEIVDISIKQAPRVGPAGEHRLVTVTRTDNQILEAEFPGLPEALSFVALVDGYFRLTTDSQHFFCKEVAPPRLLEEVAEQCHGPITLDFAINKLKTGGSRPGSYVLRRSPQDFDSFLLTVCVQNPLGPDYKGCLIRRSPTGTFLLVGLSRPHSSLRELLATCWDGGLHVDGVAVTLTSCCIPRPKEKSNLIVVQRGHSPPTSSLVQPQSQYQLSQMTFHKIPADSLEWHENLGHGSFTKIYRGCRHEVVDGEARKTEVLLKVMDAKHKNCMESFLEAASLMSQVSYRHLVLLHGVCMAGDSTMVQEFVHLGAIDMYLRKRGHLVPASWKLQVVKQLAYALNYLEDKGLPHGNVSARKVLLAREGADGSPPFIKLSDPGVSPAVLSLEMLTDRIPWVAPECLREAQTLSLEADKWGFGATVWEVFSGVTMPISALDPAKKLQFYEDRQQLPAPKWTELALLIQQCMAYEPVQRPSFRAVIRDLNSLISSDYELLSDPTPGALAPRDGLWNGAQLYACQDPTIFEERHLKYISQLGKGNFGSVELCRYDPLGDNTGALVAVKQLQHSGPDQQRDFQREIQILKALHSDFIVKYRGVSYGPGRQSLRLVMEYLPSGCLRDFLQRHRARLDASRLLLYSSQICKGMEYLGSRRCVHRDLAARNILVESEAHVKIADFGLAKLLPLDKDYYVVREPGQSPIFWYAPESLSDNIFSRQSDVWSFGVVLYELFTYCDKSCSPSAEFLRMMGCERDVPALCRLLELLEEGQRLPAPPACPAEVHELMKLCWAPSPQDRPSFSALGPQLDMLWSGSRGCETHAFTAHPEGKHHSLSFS
UniProt O15111, sequence (whole entry, looked up): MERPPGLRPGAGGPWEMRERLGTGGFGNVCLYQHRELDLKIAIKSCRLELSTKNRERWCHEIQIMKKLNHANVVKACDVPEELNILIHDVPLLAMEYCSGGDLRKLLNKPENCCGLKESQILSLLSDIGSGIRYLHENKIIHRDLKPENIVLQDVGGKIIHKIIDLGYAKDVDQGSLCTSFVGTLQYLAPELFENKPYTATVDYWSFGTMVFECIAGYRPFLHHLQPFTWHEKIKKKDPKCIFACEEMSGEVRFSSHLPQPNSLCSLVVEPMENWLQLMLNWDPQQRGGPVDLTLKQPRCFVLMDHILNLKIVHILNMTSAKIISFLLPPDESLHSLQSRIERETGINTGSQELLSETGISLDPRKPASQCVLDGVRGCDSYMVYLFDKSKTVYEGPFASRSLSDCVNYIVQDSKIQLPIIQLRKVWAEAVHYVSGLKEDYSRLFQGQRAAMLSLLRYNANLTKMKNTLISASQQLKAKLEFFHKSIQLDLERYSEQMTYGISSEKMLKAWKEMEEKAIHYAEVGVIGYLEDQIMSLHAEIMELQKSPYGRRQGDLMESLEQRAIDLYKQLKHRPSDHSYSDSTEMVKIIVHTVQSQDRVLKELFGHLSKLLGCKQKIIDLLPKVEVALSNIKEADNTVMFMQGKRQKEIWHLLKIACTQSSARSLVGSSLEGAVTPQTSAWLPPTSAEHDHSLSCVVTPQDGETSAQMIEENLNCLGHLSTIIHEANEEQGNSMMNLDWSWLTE

Study 1
Species: human
Sample: microsomes or S9
Concentration: 2 µM
Time: 0.5 h
SMILES | remaining compound
Clc1cc2nc(-c3cn[nH]c3)[nH]c2cc1Cl | 40%
CC(=O)c1cccc(N(CC(=O)Nc2ccc(S(=O)(=O)N3CCCC3)cc2)S(C)(=O)=O)c1 | 25.5%
CNC(=O)c1cc2c(F)c(O)ccc2n1-c1cc(F)c(O)c(F)c1 | > 99%
CCOC(=O)CNC(=O)N1Cc2c(sc3c2CCCC3)-n2cccc2C1C(C)C (stereo not shown) | < 1%
Cc1cc(S(=O)(=O)Nc2ccc(=O)n(C)n2)sc1C | > 100%
Nc1nc(N(Cc2ccco2)Cc2ccco2)c2[nH]cnc2n1 | > 100%
Cc1cc(C(=O)NCC2(O)CCCC2(C)C)[nH]n1 (stereo not shown) | 91.6%

Study 2
SMILES: O=C(O)[C@@H]1[C@@H](Cn2nnc3ccccc3c2=O)CC[C@H]1C(=O)c1ccc(OCCC2CCOCC2)cc1
Effect on: cell-free assay
Method: competition with immobilised ligand
Concentration: 1 µM
target | remaining binding
PKN2 (Homo sapiens, UniProt Q16513) | 100%
CHUK (Homo sapiens, UniProt O15111) | 100%
DDR2 (Homo sapiens, UniProt Q16832) | 100%
MAP2K5 (Homo sapiens, UniProt Q13163) | 73%
EPHA8 (Homo sapiens, UniProt P29322) | 99%
KIT (Homo sapiens, UniProt P10721, V559D/V654A) | 94%
EGFR (Homo sapiens, UniProt P00533, A750P/del747-749) | 100%
FGFR1 (Homo sapiens, UniProt P11362) | 100%

Study 3
SMILES: CCOc1ccc(Nc2c3c(nc4ccccc24)CCC3)cc1
Organism: Leishmania donovani
Strain: DD8
assay | system | setting | inhibition
parasite killing | intracellular amastigotes | 20 µM, 72 h | 100%
parasite viability, resazurin | promastigotes | 0.016 µM | 3% and -6% and -5% and 0%
parasite killing | promastigotes | 16.66 µM, 24 h | 89% and 91% and 94%
parasite killing | promastigotes | 33.33 µM, 72 h | 99% and 100%
parasite viability, resazurin | promastigotes | 0.16 µM | -2% and -1% and 5%
parasite viability, resazurin | promastigotes | 0.033 µM | -1% and -2% and 1% and 2%
parasite killing | promastigotes | 16.66 µM, 96 h | 98% and 100% and 95%

Study 4
SMILES: CN(C)S(=O)(=O)c1ccc2c(c1)/C(=C/c1cc3c([nH]1)CCCC3)C(=O)N2
Effect on: enzyme activity
Mode: inhibitor
Concentration: 0.5 µM
Baseline: control
target | remaining activity [%]
ULK3 (Homo sapiens, UniProt Q6PHR2) | 26.3
ARAF (Homo sapiens, UniProt P10398) | 105
FGFR3 (Homo sapiens, UniProt P22607) | 57.1
MST1R (Homo sapiens, UniProt Q04912) | 101
NEK1 (Homo sapiens, UniProt Q96PY6) | 93.1
MAP3K14 (Homo sapiens, UniProt Q99558) | 94.6
FRK (Homo sapiens, UniProt P42685) | 86
GSK3B (Homo sapiens, UniProt P49841) | 95.6
JAK3 (Homo sapiens, UniProt P52333) | 64.8
MAP3K5 (Homo sapiens, UniProt Q99683) | 106
TBK1 (Homo sapiens, UniProt Q9UHD2) | 80.6
RPS6KA2 (Homo sapiens, UniProt Q15349) | 52.8
MAPKAPK2 (Homo sapiens, UniProt P49137) | 101
CSNK1G3 (Homo sapiens, UniProt Q9Y6M4) | 101
ACVR1B (Homo sapiens, UniProt P36896) | 105

Repeated from above (study 1):
SMILES | remaining compound
Clc1cc2nc(-c3cn[nH]c3)[nH]c2cc1Cl | 40%
CC(=O)c1cccc(N(CC(=O)Nc2ccc(S(=O)(=O)N3CCCC3)cc2)S(C)(=O)=O)c1 | 25.5%
CNC(=O)c1cc2c(F)c(O)ccc2n1-c1cc(F)c(O)c(F)c1 | > 99%
CCOC(=O)CNC(=O)N1Cc2c(sc3c2CCCC3)-n2cccc2C1C(C)C (stereo not shown) | < 1%
Cc1cc(S(=O)(=O)Nc2ccc(=O)n(C)n2)sc1C | > 100%
